Results collected from several papers.
“And” joins repeats or separate records; there may be more than shown. ± marks the error that the study gave. Converted amounts (≈) assume the structure as drawn.
Organism: Staphylococcus aureus

SMILES = CCCCCCCCCC(=O)N[C@@H](Cc1c[nH]c2ccccc12)C(=O)N[C@H](CC(N)=O)C(=O)N[C@@H](CC(=O)O)C(=O)N[C@@H]1C(=O)NCC(=O)N[C@@H](CCCN)C(=O)N[C@@H](CC(=O)O)C(=O)N[C@H](C)C(=O)N[C@@H](CC(=O)O)C(=O)NCC(=O)N[C@H](CO)C(=O)N[C@@H]([C@H](C)CC(=O)O)C(=O)N[C@@H](CC(=O)c2ccccc2N)C(=O)O[C@@H]1C; system = ATCC 700699, MRSA; setting = 4 × MIC; measurement = time to kill below detection; value = ≤ 10 h
SMILES = OB(O)CSc1nc2ccccc2n1Cc1ccc(C(F)(F)F)cc1C(F)(F)F; system = mec operon, bla-negative; setting = 8 mg/L, added: oxacillin; measurement = oxacillin MIC; value = no effect
SMILES = Cc1c([N+](=O)[O-])oc2ccc3ccccc3c12; assay = REMA; measurement = MIC90; value = 1 µg/mL (≈ 4.4 µM)
SMILES = CC[C@H](C)[C@H](NC(=O)[C@H](Cc1ccccc1)NC(=O)[C@@H](NC(=O)[C@H](Cc1c[nH]c2ccccc12)NC(=O)[C@@H]1CCCN1C(=O)[C@@H](NC(=O)[C@H](C)N)[C@@H](C)CC)[C@@H](C)CC)C(=O)N[C@@H](Cc1ccccc1)C(=O)N[C@@H](CCCNC(=N)N)C(=O)N[C@@H](CC(C)C)C(=O)N[C@@H](CC(C)C)C(=O)N[C@@H](CCCNC(=N)N)C(=O)N[C@@H](CCCCN)C(=O)NCC(N)=O; system = ATCC 35556; setting = 18 h, 37 °C; measurement = MBC; value = 3.75 µM (≈ 6.48 µg/mL)
SMILES = COc1c([N+](=O)[O-])oc2ccc3ccccc3c12; assay = REMA; measurement = MIC90; value = > 32 µg/mL
SMILES = CN[C@H](CC(C)C)C(=O)N[C@H]1C(=O)N[C@@H](CC(N)=O)C(=O)N[C@H]2C(=O)N[C@H]3C(=O)N[C@H](C(=O)N[C@H](C(=O)O)c4cc(O)cc(O)c4-c4cc3ccc4O)[C@H](O)c3ccc(c(Cl)c3)Oc3cc2cc(c3O[C@@H]2O[C@H](CO)[C@@H](O)[C@H](O)[C@H]2O[C@H]2C[C@](C)(N)[C@H](O)[C@H](C)O2)Oc2ccc(cc2Cl)[C@H]1O; assay = DCFH-DA fluorescence; system = MRSA ATCC 33591; setting = 1 × MIC; scale = higher = more ROS; measurement = ROS level; value = 756 a.u.
SMILES = CC[C@H](C)[C@H](NC(=O)[C@H](Cc1ccccc1)NC(=O)[C@@H](NC(=O)[C@H](Cc1ccccc1)NC(=O)[C@@H]1CCCN1C(=O)[C@@H](NC(=O)[C@H](C)N)[C@@H](C)CC)[C@@H](C)CC)C(=O)N[C@@H](Cc1c[nH]c2ccccc12)C(=O)N[C@@H](CCCNC(=N)N)C(=O)N[C@@H](CC(C)C)C(=O)N[C@@H](CC(C)C)C(=O)N[C@@H](CCCNC(=N)N)C(=O)N[C@@H](CCCCN)C(=O)NCC(N)=O; system = ATCC 35556; setting = 18 h, 37 °C; measurement = MBC; value = 1.88 µM (≈ 3.25 µg/mL)
SMILES = CC(C)[C@@H]1NC(=O)CNC(=O)[C@H](CC(N)=O)NC(=O)[C@H](CCCNC(=N)N)NC(=O)[C@H](Cc2ccc(O)cc2)NC(=O)[C@H](C(C)C)NC(=O)[C@@H](NC(=O)[C@@H](NC(=O)[C@H](CC(N)=O)NC(=O)[C@H](Cc2c[nH]c3ccccc23)NC(=O)[C@H](C)NC(=O)[C@H](Cc2ccccc2)NC(=O)CN)C(C)C)CSSC[C@@H](C(=O)N[C@@H](Cc2c[nH]cn2)C(=O)N[C@@H](CCCNC(=N)N)C(=O)N[C@@H](CCCNC(=N)N)C(=O)N[C@@H](C)C(=O)N[C@@H](CC(N)=O)C(N)=O)NC(=O)[C@H](C(C)C)NC(=O)[C@H](CCCNC(=N)N)NC1=O; assay = bactericidal activity; system = ATCC 43300; setting = 24 h; measurement = EC50; value = 5.08 µM
SMILES = CC(C)CCCCCCCCCCCCCCCc1cc(O)cc(O)c1; assay = bacterial growth; system = MRSA USA300; measurement = IC50; value = > 200 µM
SMILES = O=C(O)c1cn(C2CC2)c2cc(N3CCNCC3)c(F)cc2c1=O; system = MRSA ATCC 33591; setting = 1/4 × MIC; measurement = biofilm inhibition; value = 91.2%
SMILES = CC[C@H](C)[C@H](NC(=O)[C@H](C)NC(=O)[C@H](CCCCN)NC(=O)[C@H](CC(C)C)NC(=O)[C@H](C)NC(=O)[C@@H](NC(=O)[C@H](Cc1c[nH]cn1)NC(=O)[C@H](CC(C)C)NC(=O)[C@@H](NC(=O)[C@@H](NC(=O)[C@H](CCCCN)NC(=O)[C@H](C)NC(=O)[C@H](C)NC(=O)[C@H](CO)NC(=O)[C@H](CCCCN)NC(=O)[C@H](Cc1ccccc1)NC(=O)[C@@H](NC(=O)[C@H](CCCCN)NC(=O)[C@H](CC(C)C)NC(=O)[C@H](Cc1ccccc1)NC(=O)[C@H](CO)NC(=O)[C@H](CCCCN)NC(=O)[C@H](Cc1c[nH]c2ccccc12)NC(=O)[C@H](CCCCN)NC(C)=O)[C@@H](C)O)[C@@H](C)O)C(C)C)[C@@H](C)O)C(=O)N[C@@H](CO)C(=O)N[C@@H](CO)C(N)=O; system = MRSA; setting = 130 strains; measurement = MBC50; value = 8 µg/mL (≈ 2.73 µM)
SMILES = CC[C@H](C)[C@H](NC(=O)[C@H](Cc1c[nH]c2ccccc12)NC(=O)[C@@H](NC(=O)[C@H](Cc1ccc(O)cc1)NC(=O)[C@@H]1CCCN1C(=O)[C@@H](NC(=O)[C@H](C)N)[C@@H](C)CC)[C@@H](C)CC)C(=O)N[C@@H](Cc1ccc(O)cc1)C(=O)N[C@@H](CCCNC(=N)N)C(=O)N[C@@H](CC(C)C)C(=O)N[C@@H](CC(C)C)C(=O)N[C@@H](CCCNC(=N)N)C(=O)N[C@@H](CCCCN)C(=O)NCC(N)=O; system = ATCC 19609; setting = 18 h, 37 °C; measurement = MBC; value = 15 µM (≈ 26.4 µg/mL)
SMILES = C=CC[C@@H]1c2ccc(OC)c(OC)c2CN2CCc3cc4c(cc3[C@H]12)OCO4; system = P2rx7 A312V/A312V mice, skin wound infection; setting = dose not given, day 2; scale = baseline: day 0; measurement = relative wound size; value = 1.21 and 0.97 and 1.01 and 1
SMILES = COc1ccc2c(ccc3oc([N+](=O)[O-])c(OC)c32)c1; assay = REMA; measurement = MIC90; value = > 32 µg/mL
SMILES = OB(O)c1csc2ccccc12; assay = crystal violet; system = USA300 wild type; setting = 50 µM; scale = baseline: wild type untreated; measurement = biofilm formation; value = 27.3% and 32.7% and 32.1%
SMILES = Oc1c(Br)cc(Br)c2nc3ccccc3nc12; system = MRSA 1707, DMSO stock; setting = 10 µL of 10 mM, 16 h, added: glutathione 200 µM; measurement = zone of inhibition; value = 5.47 ± 0.47 cm²
SMILES = O=[N+]([O-])c1cc2c(ccc3c4cc([N+](=O)[O-])oc4ccc23)o1; assay = REMA; measurement = MIC90; value = 4 µg/mL (≈ 13.4 µM)
SMILES = Cc1c2c(nn1C)CSCc1cc(n(C)n1)CSc1cc(c3ccccc3c1)OCCCc1c(C(=O)O)n(C)c3c-2c(Cl)ccc13; assay = label-free proteomics, item: katA; system = SA113; setting = concentration not given; scale = baseline: untreated; measurement = log2 fold change; value = 2.53
SMILES = CC(C)C[C@H](NC(=O)[C@H](CCCCN)NC(=O)OCC1c2ccccc2-c2ccccc21)C(=O)N[C@H](C(=O)N[C@@H](Cc1ccccc1)C(=O)N[C@@H](Cc1ccccc1)C(=O)N[C@@H](CCCCN)C(=O)NCC(=O)N[C@@H](Cc1ccccc1)C(=O)N[C@@H](C)C(=O)N[C@@H](Cc1c[nH]c2ccccc12)C(=O)N[C@@H](CC(N)=O)C(=O)N[C@H](C(=O)N[C@H]1CSSC[C@@H](C(=O)N[C@@H](Cc2c[nH]cn2)C(=O)N[C@@H](CCCNC(=N)N)C(=O)N[C@@H](CCCNC(=N)N)C(=O)N[C@@H](C)C(=O)N[C@@H](CC(N)=O)C(N)=O)NC(=O)[C@H](C(C)C)NC(=O)[C@H](CCCNC(=N)N)NC(=O)[C@H](C(C)C)NC(=O)CNC(=O)[C@H](CC(N)=O)NC(=O)[C@H](CCCNC(=N)N)NC(=O)[C@H](Cc2ccc(O)cc2)NC(=O)[C@H](C(C)C)NC1=O)C(C)C)C(C)C; assay = bactericidal activity; system = ATCC 43300; setting = 24 h; measurement = EC50; value = 3.31 µM
SMILES = CC[C@H](C)[C@H](N)C(=O)N[C@@H](CO)C(=O)N[C@@H](Cc1ccccc1)C(=O)N[C@@H](CC(C)C)C(=O)NCC(=O)N[C@@H](CO)C(=O)N[C@@H](CCCCN)C(=O)N[C@H](C(=O)N[C@H](C(=O)N[C@H](C(=O)N[C@@H](CC(C)C)C(=O)N[C@@H](CC(C)C)C(=O)N[C@@H](CCCCN)C(=O)N[C@@H](CCCNC(=N)N)C(=O)N[C@@H](CCCNC(=N)N)C(=O)N[C@@H](CCCCN)C(=O)N[C@@H](CCCNC(=N)N)C(=O)N[C@@H](CCCCN)C(=O)N[C@@H](CCCNC(=N)N)C(=O)N[C@@H](CCCCN)C(N)=O)C(C)C)C(C)C)C(C)C; assay = checkerboard; setting = unit not given, added: oritavancin; scale = lower means synergy; measurement = FICI; value = 0.19
SMILES = CN[C@H](CC(C)C)C(=O)N[C@H]1C(=O)N[C@@H](CC(N)=O)C(=O)N[C@H]2C(=O)N[C@H]3C(=O)N[C@H](C(=O)N[C@H](C(=O)O)c4cc(O)cc(O)c4-c4cc3ccc4O)[C@H](O)c3ccc(c(Cl)c3)Oc3cc2cc(c3O[C@@H]2O[C@H](CO)[C@@H](O)[C@H](O)[C@H]2O[C@H]2C[C@](C)(N)[C@H](O)[C@H](C)O2)Oc2ccc(cc2Cl)[C@H]1O; system = ATCC 25923; setting = 64 µg per disk; measurement = inhibition zone diameter; value = 16 mm
SMILES = CC[C@H](C)[C@H](NC(=O)[C@H](C)NC(=O)[C@H](CCCCN)NC(=O)[C@H](CCCNC(=N)N)NC(=O)[C@H](CCCCN)NC(=O)[C@H](CCCNC(=N)N)NC(=O)[C@H](CCCCN)NC(=O)[C@@H](N)CCCNC(=N)N)C(=O)N[C@@H](CO)C(=O)NCC(=O)N[C@@H](CO)C(=O)N[C@@H](CC(C)C)C(=O)N[C@H](C(=O)N[C@H](C(=O)N[C@@H](CC(C)C)C(=O)N[C@@H](Cc1ccccc1)C(=O)NCC(=O)N[C@@H](Cc1ccc(O)cc1)C(N)=O)[C@@H](C)O)C(C)C; assay = checkerboard; setting = unit not given, added: oritavancin; scale = lower means synergy; measurement = FICI; value = 0.13
SMILES = COc1cc2ccc3oc([N+](=O)[O-])cc3c2cc1OC; assay = REMA; measurement = MIC90; value = > 32 µg/mL
